Results collected from several papers.
Each line is one published result; not all experiments were run side by side. Numbers after ± are the reported error.

With `CC[C@H]1OC(=O)[C@H](C(C)C)NC(=O)[C@H](C)OC(=O)[C@@H](C(C)C)NC(=O)[C@@H](C(C)C)OC(=O)[C@H](C(C)C)NC(=O)[C@H](C)OC(=O)[C@@H](C(C)C)NC(=O)[C@@H](C(C)C)OC(=O)[C@H](C(C)C)NC(=O)[C@H](C)OC(=O)[C@@H](C(C)C)NC1=O` the IC50 was 0.4 µM (U-251; cell growth or viability, SRB; 72 h).
`CCOC(=O)[C@@H]1Cc2c(cc([N+](=O)[O-])cc2[N+](=O)[O-])[C@@H](O)[C@@]12C(=O)Nc1ccc(Cl)cc12` (single isomer, unassigned) has an IC50 of > 50 µM (U-251; cell growth or viability, MTT; 24 h).
`C[C@H]1[C@H](OC(=O)CCC(=O)OCCc2ccc(O)cc2)O[C@@H]2O[C@@]3(C)CC[C@H]4[C@H](C)CC[C@@H]1[C@@]24OO3` gave an IC50 of 1.5 ± 0.04 µM (SK-MEL-24; cell viability, MTT; 24 h, without deferoxamine).
For `C[C@H]1C(OCCCCCCC[P+](c2ccccc2)(c2ccccc2)c2ccccc2)O[C@@H]2O[C@@]3(C)CCC4[C@H](C)CCC1[C@]42OO3` (some centres unmarked), the IC50 was 0.0605 µM (T24; cell growth or viability, MTT; 72 h).
`Cc1ccc(-n2nc3c(=O)n(CCCC(=O)NCC(C)c4ccccc4)nc(C)c3c2C)cc1` (centres unmarked) has an IC50 of > 100 µM (MIA PaCa-2; cell growth or viability, CCK-8; 72 h).
`C[C@@H]1N=C(c2ccccc2)c2cc(C#CCCCC(=O)NO)ccc2N(C)C1=O` has an IC50 of 6.5 µM (THP-1; apoptosis, flow cytometry; 48 h).
For `COc1cc(C=CC(=O)CC(=O)C=Cc2ccc(OC(=O)CCC(=O)OC3OC4OC5(C)CCC6C(C)CCC(C3C)C46OO5)c(OC)c2)ccc1OC(=O)CCC(=O)OC1OC2OC3(C)CCC4C(C)CCC(C1C)C24OO3` (centres unmarked), the IC50 was 2.41 ± 0.8 µM (SK-MEL3; cell viability, MTT; 24 h, without deferoxamine).
`C[C@H]1O[C@@H](O[C@H]2CC[C@@]3(C)[C@H](CC[C@@H]4[C@@H]3CC[C@]3(C)[C@@H](C5=CC(=O)OC5)[C@@H](O)C[C@]43O)C2)C[C@H](O)[C@@H]1O` has an IC50 of 1.2 µM (BEAS-2B; cell growth or viability, MTT; 48 h).
The IC50 of `N.N.O=C([O][Pt]([Cl])([Cl])[O]C(=O)c1ccc(P(c2ccccc2)c2ccccc2)cc1)c1ccc(P(c2ccccc2)c2ccccc2)cc1.[Cl][Au].[Cl][Au]` is reported as 7.06 µM (T24; cell growth or viability, resazurin; 72 h).
With `COc1cc(/C=C(\C#N)C(=O)Nc2nnc(C(F)(F)F)s2)ccc1OC(=O)N1CCN(C(=O)CCCC(=O)NCCCC[C@@H]2NC(=O)[C@@H](Cc3ccc(O)cc3)NC(=O)[C@H](CC(=O)O)NC(=O)CNC(=O)[C@H](CCCNC(=N)N)NC2=O)CC1` the IC50 was > 100 µM (HCC827; cell growth, MTT; 48 h).
The IC50 of `CCCCCCN(CCCCCC)C1=[S+][Au-]2([S]1)[c]1ccccc1-c1cccc[c]12` is reported as > 100 µM (UWB1289; cell growth or viability, MTT; 72 h).
With `[Cl][Os][Ge]([Cl])([Cl])[Cl].c1ccc(P(c2ccccc2)c2ccccc2)cc1.c1ccccc1` the IC50 was 13.7 µM (Ehrlich; cell growth or viability, MTT; 24 h).
The IC50 of `COC(=O)C1CN1S(=O)(=O)c1ccc(N)cc1` (centres unmarked) is reported as 200 µM (HT-1080; cell growth or viability, MTT; 48 h).
The IC50 of `CC(C)C[C@H](NC(=O)[C@H](CC(C)C)NC(=O)[C@H](CCC(=O)O)NC(=O)[C@H](Cc1c[nH]cn1)NC(=O)[C@H](CC(C)C)NC(=O)[C@H](Cc1c[nH]cn1)NC(=O)[C@H](CCC(=O)O)NC(=O)[C@H](CC(C)C)NC(=O)[C@H](CC(C)C)NC(=O)[C@H](CCC(=O)O)NC(=O)[C@H](Cc1c[nH]cn1)NC(=O)[C@@H](N)CC(C)C)C(=O)N[C@@H](CCC(=O)O)C(=O)N[C@@H](Cc1c[nH]cn1)C(N)=O` is reported as > 100 µM (4T1; cell growth or viability, MTT; pH 6).
The IC50 of `CC(=O)NC(Cc1ccc(Br)c(Cl)c1)C(=O)N[C@@H](C)C(=O)N1CCC[C@H]1C(=O)N1CCC[C@H]1C(=O)N[C@@H](CCC(=O)O)C(=O)N[C@@H](Cc1c[nH]cn1)C(=O)N[C@@H](CO)C(=O)N[C@H](C(=O)N[C@@H](C)C(N)=O)[C@@H](C)OP(=O)(O)O` (some centres unmarked) is reported as 0.09 µM (U-266; cell growth or viability, MTT; 72 h).
With `N[C@H](CC[As](O)O)C(=O)O` the IC50 was 75 µM (MCF-12A; cell growth or viability).
`Cc1nc([C@H](NC(=O)c2ccc(-c3ccc(Cl)cc3)[nH]2)[C@H]2CCCCN2)sc1CO` has an IC50 of 7.6 µM (MAGI-CCR5 and HL2/3 cells; HIV-1 Env-mediated cell fusion, beta-galactosidase).
With `Cc1cc(C)c(-n2ccn(-c3c(C)cc(C)cc3C)c2=[Se])c(C)c1.[Cl][Ag]` the IC50 was 2 ± 0.7 µM (H157 lung carcinoma cells; cell viability, MTT; 72 h).
For `NC(=NN=Cc1cccs1)[S][Ru+]([Cl])([P](c1ccccc1)(c1ccccc1)c1ccccc1)[P](c1ccccc1)(c1ccccc1)c1ccccc1.[Cl-]`, the IC50 was 37.1 µM (MCF-12A; cell growth or viability, resazurin; 96 h).
`CC(C)(C)C(=O)OCOP(=O)(OCOC(=O)C(C)(C)C)C1CCCN(O)C1=O` (centres unmarked) gave an IC50 of ~0.25 µM (RCC4 VHL-deficient; cell growth, crystal violet).
With `C[C@H](NC(=O)[C@H](CCCNC(=N)N)NC(=O)[C@H](CCCNC(=N)N)NC(=O)[C@@H]1CCCN1C(=O)CNC(=O)[C@H](CCCNC(=N)N)NC(=O)[C@H](CCCNC(=N)N)NC(=O)CN)C(=O)N[C@@H](CC(N)=O)C(=O)N[C@@H](CCC(N)=O)C(=O)N[C@@H](CC(N)=O)C(=O)NCC(=O)N[C@H](C(=O)N[C@@H](CCCNC(=N)N)C(=O)N[C@@H](CCCNC(=N)N)C(=O)N[C@@H](CCCNC(=N)N)C(=O)N[C@@H](CCCNC(=N)N)C(=O)N[C@@H](CCCNC(=N)N)C(=O)N[C@@H](CCCNC(=N)N)C(=O)N[C@H](C(N)=O)[C@@H](C)O)[C@@H](C)O` the IC50 was > 100 µM (Hs68; cell viability, CellTiter-Blue; 24 h, serum-free medium).
With `CCN1CCC(CN2c3ccccc3Sc3ccccc32)C1` (centres unmarked) the IC50 was 29.5 ± 8.7 µM (Vero 76; cytotoxicity).
For `C[C@H]1C(OCCCCCCCCC[P+](c2ccccc2)(c2ccccc2)c2ccccc2)O[C@@H]2O[C@@]3(C)CCC4[C@H](C)CCC1[C@]42OO3` (some centres unmarked), the IC50 was 0.116 µM (T24; cell growth or viability, MTT; 72 h).

For quick reference, copied from above:
For `NC(=NN=Cc1cccs1)[S][Ru+]([Cl])([P](c1ccccc1)(c1ccccc1)c1ccccc1)[P](c1ccccc1)(c1ccccc1)c1ccccc1.[Cl-]`, the IC50 was 37.1 µM (MCF-12A; cell growth or viability, resazurin; 96 h).
`C[C@H]1[C@H](OC(=O)CCC(=O)OCCc2ccc(O)cc2)O[C@@H]2O[C@@]3(C)CC[C@H]4[C@H](C)CC[C@@H]1[C@@]24OO3` gave an IC50 of 1.5 ± 0.04 µM (SK-MEL-24; cell viability, MTT; 24 h, without deferoxamine).
